# Published values of several laboratories.
# A part holds a random share of what one study measured.
# Sequence of UniProt P68400 (whole entry, looked up): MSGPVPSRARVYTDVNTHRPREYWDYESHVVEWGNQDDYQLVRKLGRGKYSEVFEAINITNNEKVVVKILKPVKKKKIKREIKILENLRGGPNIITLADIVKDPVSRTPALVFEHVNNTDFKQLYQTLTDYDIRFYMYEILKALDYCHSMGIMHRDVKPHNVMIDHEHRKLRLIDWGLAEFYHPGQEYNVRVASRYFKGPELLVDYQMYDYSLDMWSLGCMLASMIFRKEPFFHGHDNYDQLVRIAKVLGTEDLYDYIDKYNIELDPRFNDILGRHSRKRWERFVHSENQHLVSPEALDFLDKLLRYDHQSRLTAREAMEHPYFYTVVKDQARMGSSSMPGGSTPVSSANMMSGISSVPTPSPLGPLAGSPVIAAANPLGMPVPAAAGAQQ
# Sequence of UniProt P21802 (whole entry, looked up): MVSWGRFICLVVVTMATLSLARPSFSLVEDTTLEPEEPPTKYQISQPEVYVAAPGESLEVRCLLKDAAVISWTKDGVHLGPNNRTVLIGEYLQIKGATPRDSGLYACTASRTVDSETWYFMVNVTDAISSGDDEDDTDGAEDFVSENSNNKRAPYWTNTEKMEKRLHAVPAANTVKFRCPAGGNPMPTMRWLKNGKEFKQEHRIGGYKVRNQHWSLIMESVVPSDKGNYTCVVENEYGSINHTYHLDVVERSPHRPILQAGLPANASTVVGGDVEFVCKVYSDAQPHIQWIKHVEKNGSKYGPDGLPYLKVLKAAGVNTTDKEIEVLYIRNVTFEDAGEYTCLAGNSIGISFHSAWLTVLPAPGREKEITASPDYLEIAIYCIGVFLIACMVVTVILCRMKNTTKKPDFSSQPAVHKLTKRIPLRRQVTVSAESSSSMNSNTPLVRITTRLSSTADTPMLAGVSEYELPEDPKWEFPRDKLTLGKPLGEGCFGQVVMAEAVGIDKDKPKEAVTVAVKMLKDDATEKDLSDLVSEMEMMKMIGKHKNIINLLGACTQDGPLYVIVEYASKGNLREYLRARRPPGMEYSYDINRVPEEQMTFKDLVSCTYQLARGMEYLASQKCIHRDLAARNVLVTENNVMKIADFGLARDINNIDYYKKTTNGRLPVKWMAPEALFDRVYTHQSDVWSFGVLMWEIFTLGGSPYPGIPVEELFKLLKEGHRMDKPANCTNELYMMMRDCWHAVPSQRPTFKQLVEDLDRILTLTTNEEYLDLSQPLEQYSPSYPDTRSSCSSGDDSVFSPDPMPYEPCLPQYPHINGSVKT
# Sequence of UniProt P10721 (whole entry, unmodified, looked up): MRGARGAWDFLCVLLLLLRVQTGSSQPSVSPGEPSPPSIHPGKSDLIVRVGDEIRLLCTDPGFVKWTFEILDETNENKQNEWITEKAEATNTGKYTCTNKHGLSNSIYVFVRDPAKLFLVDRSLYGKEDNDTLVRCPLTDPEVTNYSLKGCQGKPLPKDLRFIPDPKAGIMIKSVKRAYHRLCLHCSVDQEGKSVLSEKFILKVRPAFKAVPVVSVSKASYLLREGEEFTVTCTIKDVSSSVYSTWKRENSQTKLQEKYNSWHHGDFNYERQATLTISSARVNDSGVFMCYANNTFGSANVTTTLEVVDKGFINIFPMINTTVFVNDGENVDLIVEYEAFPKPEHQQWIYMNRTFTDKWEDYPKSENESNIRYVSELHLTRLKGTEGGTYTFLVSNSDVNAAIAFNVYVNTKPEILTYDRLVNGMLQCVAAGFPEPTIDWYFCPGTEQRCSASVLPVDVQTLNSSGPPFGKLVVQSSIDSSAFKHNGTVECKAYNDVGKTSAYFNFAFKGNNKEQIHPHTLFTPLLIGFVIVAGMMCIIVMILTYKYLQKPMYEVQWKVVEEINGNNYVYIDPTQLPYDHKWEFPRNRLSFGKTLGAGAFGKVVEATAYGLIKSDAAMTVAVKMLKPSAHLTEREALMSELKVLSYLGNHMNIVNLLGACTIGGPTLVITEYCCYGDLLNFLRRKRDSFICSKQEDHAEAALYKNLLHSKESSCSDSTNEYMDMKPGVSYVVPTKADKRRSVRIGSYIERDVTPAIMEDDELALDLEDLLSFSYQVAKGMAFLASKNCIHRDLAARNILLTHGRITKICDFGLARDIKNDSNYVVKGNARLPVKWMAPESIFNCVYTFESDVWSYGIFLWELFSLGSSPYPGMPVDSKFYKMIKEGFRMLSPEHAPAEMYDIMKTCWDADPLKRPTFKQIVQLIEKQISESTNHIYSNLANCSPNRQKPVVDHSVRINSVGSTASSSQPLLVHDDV
# Sequence of UniProt O75676 (whole entry, looked up): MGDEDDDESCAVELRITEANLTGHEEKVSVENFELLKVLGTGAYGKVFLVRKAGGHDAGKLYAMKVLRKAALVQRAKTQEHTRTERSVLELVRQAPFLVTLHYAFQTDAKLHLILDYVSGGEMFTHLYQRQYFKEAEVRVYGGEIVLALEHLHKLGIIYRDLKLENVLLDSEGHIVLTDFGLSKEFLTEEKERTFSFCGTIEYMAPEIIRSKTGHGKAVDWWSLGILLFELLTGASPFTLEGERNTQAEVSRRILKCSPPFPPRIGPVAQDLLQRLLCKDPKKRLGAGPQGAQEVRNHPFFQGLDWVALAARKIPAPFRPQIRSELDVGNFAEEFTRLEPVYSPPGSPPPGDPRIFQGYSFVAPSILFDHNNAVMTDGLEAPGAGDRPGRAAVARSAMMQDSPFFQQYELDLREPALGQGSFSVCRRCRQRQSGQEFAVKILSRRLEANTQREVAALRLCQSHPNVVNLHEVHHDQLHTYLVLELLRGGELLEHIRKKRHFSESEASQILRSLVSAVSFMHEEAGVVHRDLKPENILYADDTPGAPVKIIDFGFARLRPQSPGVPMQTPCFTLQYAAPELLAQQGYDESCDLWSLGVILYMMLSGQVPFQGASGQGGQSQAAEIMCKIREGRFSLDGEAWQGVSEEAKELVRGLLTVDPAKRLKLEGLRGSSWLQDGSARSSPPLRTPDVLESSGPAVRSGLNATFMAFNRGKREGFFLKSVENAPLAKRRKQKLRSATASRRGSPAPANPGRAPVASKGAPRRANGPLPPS
# Sequence of UniProt Q8IW41 (whole entry, looked up): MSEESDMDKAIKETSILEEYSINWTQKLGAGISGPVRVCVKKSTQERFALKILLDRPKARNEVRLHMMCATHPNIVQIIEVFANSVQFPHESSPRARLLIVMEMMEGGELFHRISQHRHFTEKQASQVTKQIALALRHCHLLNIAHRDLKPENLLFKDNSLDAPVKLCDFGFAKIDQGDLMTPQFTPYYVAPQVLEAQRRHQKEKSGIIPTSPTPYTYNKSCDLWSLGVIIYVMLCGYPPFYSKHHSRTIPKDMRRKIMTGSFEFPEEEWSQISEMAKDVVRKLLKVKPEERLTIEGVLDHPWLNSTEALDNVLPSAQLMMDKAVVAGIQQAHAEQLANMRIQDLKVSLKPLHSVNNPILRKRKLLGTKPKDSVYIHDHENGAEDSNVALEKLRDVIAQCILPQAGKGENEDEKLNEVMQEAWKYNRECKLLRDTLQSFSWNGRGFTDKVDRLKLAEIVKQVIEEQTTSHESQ
# Sequence of UniProt Q00526 (whole entry, looked up): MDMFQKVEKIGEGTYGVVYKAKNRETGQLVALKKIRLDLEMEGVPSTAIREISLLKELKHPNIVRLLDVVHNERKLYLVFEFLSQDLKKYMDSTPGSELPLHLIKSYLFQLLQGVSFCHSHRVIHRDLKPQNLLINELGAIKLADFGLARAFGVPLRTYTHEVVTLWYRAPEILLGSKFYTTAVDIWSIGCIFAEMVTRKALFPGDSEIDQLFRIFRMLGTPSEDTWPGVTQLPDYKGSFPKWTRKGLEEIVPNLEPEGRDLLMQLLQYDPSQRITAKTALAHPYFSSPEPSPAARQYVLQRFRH
# Sequence of UniProt P0C264 (whole entry, looked up): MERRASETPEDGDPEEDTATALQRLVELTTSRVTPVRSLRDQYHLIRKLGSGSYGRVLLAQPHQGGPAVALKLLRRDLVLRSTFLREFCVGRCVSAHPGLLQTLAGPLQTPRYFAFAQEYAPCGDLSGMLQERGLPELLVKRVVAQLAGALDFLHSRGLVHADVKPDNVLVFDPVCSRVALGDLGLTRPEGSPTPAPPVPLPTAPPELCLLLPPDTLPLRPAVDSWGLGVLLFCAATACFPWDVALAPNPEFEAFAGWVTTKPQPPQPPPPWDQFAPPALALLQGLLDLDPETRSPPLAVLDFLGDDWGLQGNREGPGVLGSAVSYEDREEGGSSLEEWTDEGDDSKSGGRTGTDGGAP

# Set 1
# Cell line: Huh-7
# Concentration: 10 µM
# Time: 24 h
SMILES,viability [%]
CC(=O)O[C@]1(C(C)=O)CC[C@H]2[C@@H]3C=C(C)C4=CC(=O)CC[C@]4(C)[C@H]3CC[C@@]21C,89.4
NCC(=O)CCC(=O)O,102
CC1(C)O[C@@H]2C[C@H]3[C@@H]4C[C@H](F)C5=CC(=O)C=C[C@]5(C)[C@H]4[C@@H](O)C[C@]3(C)[C@]2(C(=O)CO)O1,100
CNC[C@H](O)c1cccc(O)c1,89.8
O=S(=O)(O)CCS,99.1
CN1CCN(CC/C=C2/c3ccccc3Sc3ccc(S(=O)(=O)N(C)C)cc32)CC1,96.6
CN(C)[C@@H]1C(O)=C(C(N)=O)C(=O)[C@@]2(O)C(O)=C3C(=O)c4c(O)cccc4[C@@](C)(O)[C@H]3C[C@@H]12,94.5
O=C1CC2(CCCC2)CC(=O)N1CCCCN1CCN(c2ncccn2)CC1,98.9

# Set 2
# Target: Mitogen-activated protein kinase kinase kinase 10 (MAP3K10, Homo sapiens, UniProt Q02779)
# Sequence of UniProt Q02779 (whole entry, looked up): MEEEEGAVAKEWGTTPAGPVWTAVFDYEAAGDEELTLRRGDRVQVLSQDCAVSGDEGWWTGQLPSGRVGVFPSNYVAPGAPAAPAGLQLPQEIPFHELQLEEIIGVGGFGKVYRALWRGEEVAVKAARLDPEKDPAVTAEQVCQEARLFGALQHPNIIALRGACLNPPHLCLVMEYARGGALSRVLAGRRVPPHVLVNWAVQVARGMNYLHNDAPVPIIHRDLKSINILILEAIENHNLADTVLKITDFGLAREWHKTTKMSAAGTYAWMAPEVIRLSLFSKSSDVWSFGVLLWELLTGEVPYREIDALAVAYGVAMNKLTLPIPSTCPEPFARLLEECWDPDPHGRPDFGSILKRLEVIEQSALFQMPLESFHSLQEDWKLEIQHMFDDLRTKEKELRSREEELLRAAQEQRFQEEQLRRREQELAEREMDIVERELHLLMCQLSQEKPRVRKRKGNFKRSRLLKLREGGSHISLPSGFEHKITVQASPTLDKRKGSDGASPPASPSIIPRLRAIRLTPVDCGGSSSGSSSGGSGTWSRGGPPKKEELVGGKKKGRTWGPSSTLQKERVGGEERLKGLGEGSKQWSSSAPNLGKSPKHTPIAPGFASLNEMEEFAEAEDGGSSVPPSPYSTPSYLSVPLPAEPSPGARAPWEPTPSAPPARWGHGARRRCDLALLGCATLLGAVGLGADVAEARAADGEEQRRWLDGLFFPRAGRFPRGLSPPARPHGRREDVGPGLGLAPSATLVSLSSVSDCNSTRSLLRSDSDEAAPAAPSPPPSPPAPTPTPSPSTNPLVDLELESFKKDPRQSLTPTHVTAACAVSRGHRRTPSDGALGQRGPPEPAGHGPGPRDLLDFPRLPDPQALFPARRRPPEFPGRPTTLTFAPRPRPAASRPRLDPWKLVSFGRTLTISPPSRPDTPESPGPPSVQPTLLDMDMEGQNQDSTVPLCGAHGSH
# Observed: enzyme activity
# Action: inhibitor
# Concentration: 0.5 µM
# Baseline: control
SMILES,remaining activity [%]
Cc1nc2cc3nc(-c4cccs4)cnc3cc2n1C,101
Cc1cc2ncc(-c3ccccc3)nc2cc1C,97.8
O=c1cc(-c2cccc3c2Sc2ccccc2S3)oc(N2CCOCC2)c1,95.9
CN(C)C[C@H]1CCn2c(c(C3=C(c4cn(C)c5ccccc45)C(=O)NC3=O)c3ccccc32)C1,102
CN([C@@H](Cc1ccc(OS(=O)(=O)c2cccc3cnccc23)cc1)C(=O)N1CCN(c2ccccc2)CC1)S(=O)(=O)c1cccc2cnccc12,92.6
Cc1cn(-c2cc(NC(=O)c3ccc(C)c(Nc4nccc(-c5cccnc5)n4)c3)cc(C(F)(F)F)c2)cn1,110
N#Cc1c(NC(=O)c2cccc3ccccc23)sc2c1CCCC2,85.4
Ic1cccc(CSc2nnc(-c3ccncc3)o2)c1,102
Cn1nc2c3c(cccc31)C(=O)c1ccccc1-2,91.4
COc1cc2c(cc1OC)-c1[nH]nc(Nc3cccc(F)c3)c1C2,87.1
O=C(Nc1cccc(Nc2nccc(Nc3cccc(C(F)(F)F)c3)n2)c1)C1CC1,96.4
COc1cc2ncnc(Nc3cccc(Cl)c3)c2cc1OC,101
O=C1c2ccccc2-c2n[nH]c3cccc1c23,86.7
CCN(CC)C(=O)c1ccc(Nc2nc(OCC3CCCCC3)c3[nH]cnc3n2)cc1,15.2
CCOc1nc(NC(=O)Cc2cc(OC)ccc2OC)cc(N)c1C#N,91.3
N#C/C(=C\c1ccc(O)c(O)c1)C(=O)NCc1ccccc1,100
CCN(CC)CCNC(=O)c1c(C)[nH]c(/C=C2\C(=O)Nc3ccc(Cl)cc32)c1C,82.8
COc1cc2ncnc(Nc3ccc(O)c(Br)c3)c2cc1OC,98.2
c1ccc(-c2[nH]ncc2-c2ccnc3ccccc23)nc1,104
O=C1C(Cl)=C(N2C(=O)CCC2=O)C(=O)c2ccccc21,92.8
c1ccc(-c2cnc(Nc3ccc(OCCN4CCCC4)cc3)s2)cc1,95.7
Nc1cccc(-c2cc3c(Oc4cccc(O)c4)ncnc3[nH]2)c1,79.2
O=C(NC(NC(=S)Nc1ccc(F)c([N+](=O)[O-])c1)C(Cl)(Cl)Cl)C(c1ccccc1)c1ccccc1 (centres unmarked),98.9

# Set 3
# Structure (SMILES): CS(=O)(=O)N1CCCC(NC(=O)[C@H](CCC2CCCCC2)NC(=O)c2ccc(CNc3ncnc4c3nnn4-c3ccccc3)cc2)C1 (some centres unmarked)
# Observed: cell-free assay
# Technique: competition with immobilised ligand
# Concentration: 0.1 µM
target,remaining binding [%]
"Casein kinase II subunit alpha (CSNK2A1, Homo sapiens, UniProt P68400)",94
"Cyclin-dependent kinase 3 (CDK3, Homo sapiens, UniProt Q00526)",82
"STE20-like serine/threonine-protein kinase (SLK, Homo sapiens, UniProt Q9H2G2)",100
"Uncharacterized serine/threonine-protein kinase SBK3 (SBK3, Homo sapiens, UniProt P0C264)",100
"Hepatocyte growth factor receptor (MET, Homo sapiens, UniProt P08581)",68
"MAP kinase-activated protein kinase 5 (MAPKAPK5, Homo sapiens, UniProt Q8IW41)",100
"Epidermal growth factor receptor (EGFR, Homo sapiens, UniProt P00533, L858R)",100
"Interferon-induced, double-stranded RNA-activated protein kinase (EIF2AK2, Homo sapiens, UniProt P19525)",55
"Mast/stem cell growth factor receptor Kit (KIT, Homo sapiens, UniProt P10721, D816V)",100
"Fibroblast growth factor receptor 2 (FGFR2, Homo sapiens, UniProt P21802)",97
"Phosphatidylinositol 5-phosphate 4-kinase type-2 gamma (PIP4K2C, Homo sapiens, UniProt Q8TBX8)",100
"Ribosomal protein S6 kinase alpha-4, C-terminal kinase domain (RPS6KA4, Homo sapiens, UniProt O75676)",91
"Activated CDC42 kinase 1 (TNK2, Homo sapiens, UniProt Q07912)",91
"Phosphatidylinositol 4,5-bisphosphate 3-kinase catalytic subunit alpha isoform (PIK3CA, Homo sapiens, UniProt P42336, E542K)",64

# Further values, each from its own experiment
# Cell line: A-375
# Concentration: 100 µM
# Time: 60 h
SMILES,viability [%]
Cc1cc(-c2ccc(/N=N/c3ccc4c(S(=O)(=O)O)cc(S(=O)(=O)O)c(N)c4c3O)c(C)c2)ccc1/N=N/c1ccc2c(S(=O)(=O)O)cc(S(=O)(=O)O)c(N)c2c1O,108
CCCCCCCCCC[C@H](C(=O)O)[C@]1(C(=O)O)CCC(=O)O1,105

# A few entries again (further values, each from its own experiment):
SMILES,viability [%]
CCCCCCCCCC[C@H](C(=O)O)[C@]1(C(=O)O)CCC(=O)O1,105
Cc1cc(-c2ccc(/N=N/c3ccc4c(S(=O)(=O)O)cc(S(=O)(=O)O)c(N)c4c3O)c(C)c2)ccc1/N=N/c1ccc2c(S(=O)(=O)O)cc(S(=O)(=O)O)c(N)c2c1O,108
